Results gathered from unrelated publications.
Every numbered part comes from another study and shows a few of its results, in no order.

Sample 1
Target: RING finger protein unkempt homolog, zinc fingers 1-6, GST-SBP tag (UNK, Homo sapiens, UniProt Q9C0B0, residues 30-357)
Technique: RNA Bind-n-Seq
Form: RNA
Matrix: in vitro
Tested at: not given
Setting: RNA with constant flanks, human and mouse sites, ends assumed
Reference: input RNA pool
Reading: higher = stronger binding
Endpoint: bound/input enrichment
Residues (chain): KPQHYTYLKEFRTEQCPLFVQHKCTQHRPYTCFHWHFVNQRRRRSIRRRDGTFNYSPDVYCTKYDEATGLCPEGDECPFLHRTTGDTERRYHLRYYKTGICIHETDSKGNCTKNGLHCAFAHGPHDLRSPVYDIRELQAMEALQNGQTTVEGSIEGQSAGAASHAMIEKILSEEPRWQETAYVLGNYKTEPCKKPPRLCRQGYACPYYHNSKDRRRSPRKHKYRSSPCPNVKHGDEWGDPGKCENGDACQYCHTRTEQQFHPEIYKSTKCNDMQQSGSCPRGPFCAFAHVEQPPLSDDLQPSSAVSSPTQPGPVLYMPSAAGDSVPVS
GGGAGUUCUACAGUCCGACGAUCAGGAGCGCGCCAUGGCGGUGUCCGAGAGUCAGCUGAAGAAGAUGAUGUCCAAGUACAAAUAUAGAGAUCUAACCGUCCGUCAAACUGUCAAUGUCAUCGCUAUGUACAAAGAUCUCAAACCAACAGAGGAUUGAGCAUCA: 0.0817 ratio
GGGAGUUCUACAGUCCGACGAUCCCCCACAUACCAUCUGUAGAGUUGGAACUGCAUUCUUUUAAAGUUUUAUAUGCAUAUAUUUUAGGGCUGUAGACUUACUUUCCUAUUUUCUUUUCCAUUGCUUAUUCUUGAGCACAAAAUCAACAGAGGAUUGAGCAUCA: 0.786 ratio
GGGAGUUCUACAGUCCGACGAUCAGAGCCAACGAUUGACUGCACGGCAGAGGCGCAGCUGGCCUGAGCUGGGGAGAGGUGGCAGAGGGCAGUAUGGCUUUGCUGCCAAUAGUUUCUUCUCACAGGGGCAGAAUAACCCAAAGUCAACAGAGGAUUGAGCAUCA: 0.106 ratio
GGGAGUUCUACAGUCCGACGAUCACAGUAUGUUCCCCUGUGCCCAUGUUGCGGGACCUGACACAGAACACUGCAGUCAGUAUUAAUUUUAAAGAUCCACAGUUUGCUGAAGAUUAUGUUUUUAAAGCUGCAAUGCUUCCAGGACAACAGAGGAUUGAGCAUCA: 0.151 ratio
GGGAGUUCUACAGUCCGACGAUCGCCUGUGAGGAUUACAAGAAGAUCAAGUCCCCUGCCAAGAUGGCUGAGAAGGCAAAGCAAAUUUAUGAAGAAUUCAUUCAAACGGAGGCUCCUAAAGAGGUGAAUAUUGACCACUUCACUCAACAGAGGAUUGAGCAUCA: 0.168 ratio
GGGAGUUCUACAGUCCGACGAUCGUGACAACUGGUACACUAGGAUUUGGAGAUAAAUUCAAAAGGCCUGUGGGCUCUUGGGAGUGUCCAGUCUGCUGUGUUUGUAAUAAGGCAGAAGACAACAGAUGUGUUUCCUGUACAUCUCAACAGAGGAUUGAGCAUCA: 0.153 ratio
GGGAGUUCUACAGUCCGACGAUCUACUUUACAAUCAUCCACACUGUGGUCUGUGGAUCUUUAAUAUAUAUAUAUAUAAAACAAUAGUAGUCAUUUUUAAGUAUAUUCUGAAACCUUUGCAAAUUUUAAGAGAAGAGUCGAAGCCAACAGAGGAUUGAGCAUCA: 45.1 ratio
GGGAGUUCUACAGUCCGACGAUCGACAGCCGGCUGAAGAUGAGAGCAGAGCUGGGCGAGUACAUCCGGAGGAUCACCACUGUGCCGCUGCCCACUGCGCCCAACGUCCCCAUCAUUGACUAUGAGGUGUCCAUCAGUGGAGAGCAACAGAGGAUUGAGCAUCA: 0.102 ratio

Sample 2
Target: Sal-like protein 4, full length isoform A (SALL4, Homo sapiens, UniProt Q9UJQ4, residues 1-1053)
Chain of UniProt Q9UJQ4 (whole entry, looked up): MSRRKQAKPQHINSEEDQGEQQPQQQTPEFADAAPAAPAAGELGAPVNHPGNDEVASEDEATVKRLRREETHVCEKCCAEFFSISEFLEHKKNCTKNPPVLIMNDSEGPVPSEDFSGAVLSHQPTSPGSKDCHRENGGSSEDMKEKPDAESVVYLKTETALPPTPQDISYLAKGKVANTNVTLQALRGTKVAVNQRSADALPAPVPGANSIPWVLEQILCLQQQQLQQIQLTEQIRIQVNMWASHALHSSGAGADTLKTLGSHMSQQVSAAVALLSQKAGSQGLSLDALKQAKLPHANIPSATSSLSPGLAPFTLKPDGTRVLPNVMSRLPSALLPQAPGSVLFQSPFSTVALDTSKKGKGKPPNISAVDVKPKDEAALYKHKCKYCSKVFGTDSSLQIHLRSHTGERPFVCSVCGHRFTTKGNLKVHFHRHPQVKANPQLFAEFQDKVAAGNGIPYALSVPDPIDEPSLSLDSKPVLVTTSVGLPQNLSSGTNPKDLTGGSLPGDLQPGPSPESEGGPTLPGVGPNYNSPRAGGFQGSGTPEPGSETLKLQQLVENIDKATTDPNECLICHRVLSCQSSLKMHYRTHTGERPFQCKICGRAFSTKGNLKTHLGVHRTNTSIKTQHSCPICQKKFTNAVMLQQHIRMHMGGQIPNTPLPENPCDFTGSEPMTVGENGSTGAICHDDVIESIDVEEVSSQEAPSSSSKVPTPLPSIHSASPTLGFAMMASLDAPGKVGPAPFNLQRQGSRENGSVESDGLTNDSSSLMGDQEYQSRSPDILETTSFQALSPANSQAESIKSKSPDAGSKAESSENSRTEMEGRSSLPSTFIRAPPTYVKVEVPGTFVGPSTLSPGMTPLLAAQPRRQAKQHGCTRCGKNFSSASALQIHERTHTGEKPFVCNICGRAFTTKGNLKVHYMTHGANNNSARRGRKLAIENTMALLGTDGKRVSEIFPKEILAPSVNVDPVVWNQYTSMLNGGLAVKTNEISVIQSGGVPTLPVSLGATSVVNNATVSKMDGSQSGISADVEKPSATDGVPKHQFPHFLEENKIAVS
Technique: universal PBM
Form: double-stranded DNA, one strand shown
Matrix: in vitro
Tested at: 600 nM
Setting: 8-mer, flanks averaged, mean of replicates
Reading: higher = stronger binding
Endpoint: E-score
CGTCTGGC: -0.195
AGAGCTTA: 0.0711
CCCAAGGC: -0.186
CAACTACG: 0.113
CCAGACTC: -0.192
AAAACAGC: -0.029
GACTCTAC: -0.149
CTGTAACC: -0.00983
GTATCAAA: 0.232
AGCTATGG: -0.0245
CTGTACTC: -0.0636
GTATAAGA: 0.246
GAGGCACA: -0.0802
AAGGGGCG: -0.246
AGAATATC: 0.169
CTCTCGCC: -0.331
AGTCGAAT: 0.00507
GCTTAAAA: 0.089
CGCGGAAG: -0.165
CCTATCTA: 0.0712
AGGTGATG: -0.161
ACAGTATC: 0.147
ATAGGCGC: 0.0277
GATAACAA: 0.258
CGACGTTA: 0.105

Sample 3
Target: Phosphate system positive regulatory protein PHO4, full length, GST-tagged (PHO4, Saccharomyces cerevisiae, UniProt P07270, residues 1-312)
Technique: competition protein-binding microarray
Form: double-stranded DNA, one strand shown
Matrix: in vitro
Tested at: 2 µM
Setting: whole 60-bp probe, lowest competitor level
With: Cbf1 competitor, 0.05 µM
Reading: higher = stronger binding
Endpoint: fluorescence intensity
Residues (chain): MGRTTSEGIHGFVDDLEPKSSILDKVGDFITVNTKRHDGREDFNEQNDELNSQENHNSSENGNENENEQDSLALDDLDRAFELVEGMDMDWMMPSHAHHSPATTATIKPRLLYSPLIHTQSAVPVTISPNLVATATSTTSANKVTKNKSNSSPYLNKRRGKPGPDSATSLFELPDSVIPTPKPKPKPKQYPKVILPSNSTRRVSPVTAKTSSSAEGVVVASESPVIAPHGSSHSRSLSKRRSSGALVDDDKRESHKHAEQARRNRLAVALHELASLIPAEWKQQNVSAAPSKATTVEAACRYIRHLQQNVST
GTCTTGTCTCATTGTCACTTCACTTTCCCCACTTCAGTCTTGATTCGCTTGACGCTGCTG: 4490 a.u.
TCTCGACCCGGGTGGCTCGTGCGATCTCCGGAAAAAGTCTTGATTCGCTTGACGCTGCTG: 8610 a.u.
AAAGCGGTAATTTGCCACGTGGGTGCAGATATCTATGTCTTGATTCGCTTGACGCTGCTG: 20700 a.u.
CAGGACTCCATCCATTACATGACAAGGGAAGCGCCCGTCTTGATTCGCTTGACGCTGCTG: 3360 a.u.
CTTTCCCGATCTTTTCACGTGGCCTTAGCACATTTGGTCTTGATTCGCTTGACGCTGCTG: 13700 a.u.
TTGGTGAAGGTTCCTCTCGTGAAGACGCTGCTTTGGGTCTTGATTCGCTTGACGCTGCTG: 3290 a.u.
TCTGACCCAGAATGGATACGTCCATACCGTAAGGACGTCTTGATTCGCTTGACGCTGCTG: 3780 a.u.
CTTCTGTAAATTTGCAGTGTGGGTGGACGCGCCCCGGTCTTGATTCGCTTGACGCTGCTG: 5050 a.u.
TCATGGCCTCATCGGCACGTTTACTGAAGACGACGCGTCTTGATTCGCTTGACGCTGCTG: 11600 a.u.
TTTCTCTCTTCAAGTGACCTGACAGGGCCACAGTGGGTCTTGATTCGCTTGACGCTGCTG: 3390 a.u.
TGCGCAACAACTTGGTCTGTGGGTGTATGTCTAGAAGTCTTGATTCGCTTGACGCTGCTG: 4870 a.u.
TCATTATTGAAAGTGAACGTGATTGTGAACCGCTTGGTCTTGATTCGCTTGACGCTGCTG: 10800 a.u.
ATAGTACAAATCCGTCACATGATGATATTTGATTTTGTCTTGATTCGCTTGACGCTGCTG: 8020 a.u.
AAATTACTAAGTTTTCACGTGCCGTACCCCGTATGAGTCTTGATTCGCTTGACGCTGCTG: 14900 a.u.
TAGGAACTCCTTTGCTGCGTGGCCGATTCCTCTGTAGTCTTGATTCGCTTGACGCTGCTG: 6250 a.u.
CGTCCTAGTGATTTTCACGTGGGTTCCATGAGGAAGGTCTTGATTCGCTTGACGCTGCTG: 14700 a.u.
CTTGTCATCTCTATTCACATGGGGTGGTATCTGTATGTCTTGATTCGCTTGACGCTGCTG: 10000 a.u.
GACGAAACCTCTTCACGTGTGCAGGACTTGAAAATCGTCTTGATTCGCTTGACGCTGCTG: 13300 a.u.
CTAACGAAGGTTTGATATGTGGGTGACAAGCCAAGTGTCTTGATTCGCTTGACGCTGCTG: 4220 a.u.
CAGATGGACACTTGTTACGTGTGGATCAGACTATTGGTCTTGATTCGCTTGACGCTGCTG: 5020 a.u.
GACCAGTGGCCCCGTCACAATATTCTCGGAAGCTAAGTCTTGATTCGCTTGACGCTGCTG: 2690 a.u.
GGCGCAGCGCATCTGCACGTGGTTCCAGGCCGAGCTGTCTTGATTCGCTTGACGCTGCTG: 17100 a.u.
CCCACCGTAAGGAAACACGTGGTGATGGTGGTATATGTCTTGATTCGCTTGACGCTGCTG: 18900 a.u.
TTCCAGAAATTGGTGTTTGTGATGCTTGATGCTCTCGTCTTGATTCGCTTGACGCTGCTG: 3780 a.u.
CTTTCCCGATCTTTTCACGTGGGTTTAGCACATTTGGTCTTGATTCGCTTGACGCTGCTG: 15800 a.u.

Sample 4
Target: Histone acetyltransferase KAT6A, both winged helices, GST fusion (KAT6A, Homo sapiens, UniProt Q92794, residues 1-181)
Technique: protein binding microarray
Form: double-stranded DNA, one strand shown
Matrix: in vitro
Tested at: not given
Setting: 8-mer, flanks averaged, mean of 2 arrays, mostly near background
Reference: not given
Reading: higher = stronger binding
Endpoint: E-score
Construct (chain): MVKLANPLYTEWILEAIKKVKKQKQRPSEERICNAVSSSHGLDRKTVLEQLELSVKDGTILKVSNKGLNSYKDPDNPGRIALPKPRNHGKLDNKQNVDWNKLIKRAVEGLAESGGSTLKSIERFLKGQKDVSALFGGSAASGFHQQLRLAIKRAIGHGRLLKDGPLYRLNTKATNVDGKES
GCGAAATA: 0.0112
GGGCCTGA: -0.025
CTCGCTCC: -0.0418
TCGTATAA: -0.0267
CAGGACAG: -0.118
GGTGTATA: -0.0809
AGTCAAAA: -0.0611
CGGGAGCA: 0.133
GCCAGTAA: -0.0911
AGCAATCC: -0.00898
CCCCTGGC: -0.0725
ATTGGACA: -0.0848
AGCTCCAT: -0.192
ACAGAGGT: -0.0703
GGGGCCTA: -0.114
CCTGGCTC: 0.0169
ACCGTCTA: 0.0294

A few entries again (sample 3):
TTTCTCTCTTCAAGTGACCTGACAGGGCCACAGTGGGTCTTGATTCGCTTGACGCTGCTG: 3390 a.u.
TGCGCAACAACTTGGTCTGTGGGTGTATGTCTAGAAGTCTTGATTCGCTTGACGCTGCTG: 4870 a.u.
TCATTATTGAAAGTGAACGTGATTGTGAACCGCTTGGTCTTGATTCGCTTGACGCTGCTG: 10800 a.u.
ATAGTACAAATCCGTCACATGATGATATTTGATTTTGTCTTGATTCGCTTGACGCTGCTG: 8020 a.u.
AAATTACTAAGTTTTCACGTGCCGTACCCCGTATGAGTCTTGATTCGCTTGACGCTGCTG: 14900 a.u.
TAGGAACTCCTTTGCTGCGTGGCCGATTCCTCTGTAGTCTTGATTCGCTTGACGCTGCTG: 6250 a.u.
CGTCCTAGTGATTTTCACGTGGGTTCCATGAGGAAGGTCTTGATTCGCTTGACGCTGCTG: 14700 a.u.
CTTGTCATCTCTATTCACATGGGGTGGTATCTGTATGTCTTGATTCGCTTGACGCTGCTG: 10000 a.u.
GACGAAACCTCTTCACGTGTGCAGGACTTGAAAATCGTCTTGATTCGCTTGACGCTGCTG: 13300 a.u.
CTAACGAAGGTTTGATATGTGGGTGACAAGCCAAGTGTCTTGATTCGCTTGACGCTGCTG: 4220 a.u.
CAGATGGACACTTGTTACGTGTGGATCAGACTATTGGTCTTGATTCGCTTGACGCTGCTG: 5020 a.u.
GACCAGTGGCCCCGTCACAATATTCTCGGAAGCTAAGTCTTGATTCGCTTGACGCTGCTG: 2690 a.u.
